Measured values of several laboratories.
Each line is one published result; not all experiments were run side by side. ± marks the error that the study gave.

SMILES	cell line	test	setting	IC50 [µM]
N[C@@H](CCC(=O)N[C@@H](CS[Se]Cc1ccc(-c2cc(C(F)(F)F)nn2-c2ccc(S(N)(=O)=O)cc2)cc1)C(=O)NCC(=O)O)C(=O)O	WM35 melanoma cells	cell viability, MTS	48 h, radial stage	4.1 ± 0.8
C#Cc1cccc2cc(O)cc(-c3ncc4c(N5CC6CCC(C5)N6)nc(OCC56CCCN5CCC6)nc4c3F)c12	SW1990	cell growth or viability, ATP luminescence		0.07
CCCCCCCC(=O)NCCNC(=O)[C@]1(C)[C@@H]2CC[C@]3(C)[C@H](C(=O)C=C4[C@@H]5[C@@H](C)[C@H](C)CC[C@]5(C)CC[C@]43C)[C@@]2(C)CC[C@H]1OC(C)=O	HBE	cell growth or viability, MTT	48 h	4.89
C=C1C(=O)[C@@]23CC[C@@H]4[C@](C)(COC(C)=O)CCC[C@@]4(CO)[C@@H]2[C@@H](O)C[C@@H]1C3	HBE	cell growth or viability, MTT		15
CN(C)c1ccc(/C=C2\Oc3cc(O)ccc3C2=O)cc1	myeloma cell lines	cell viability, MTT		7 to 9
N=C(N/N=C/c1ncc[nH]1)N/N=C/c1ncc[nH]1	KP-4	cell growth or viability, crystal violet	72 h	0.28
[Cl][Au].[Se]=c1n(C23CC4CC(CC(C4)C2)C3)ccn1C12CC3CC(CC(C3)C1)C2	LoVo	cell growth or viability, MTT	72 h	3.5
COc1ccc(CC[C@H]2OC(=O)[C@@H]3CCCCN3C(=O)C(=O)C(C)(C)COC(=O)/C=C/CCN(C)C(=O)[C@H](CC(C)C)N(C)C(=O)[C@@H]3CCCN3C(=O)[C@H](Cc3ccccc3)N(C)C(=O)[C@H](c3ccccc3)NC(=O)CCC(=O)Nc3cccc2c3)cc1OC	human erythrocytes	adenosine uptake, inhibitor	with: [3H]-adenosine	0.045
Cc1cc(N)c2cc(NC(=O)CCC(=O)Nc3ccc4nc(C)cc(N)c4c3)ccc2n1	CHO wild type	FGF2 binding to heparan sulfate, inhibitor, flow cytometry	on ice, with: biotinylated FGF2 2.5 nM	1.2 ± 0.11
C=C1C2CCC3(CCC4C5(C)CCCC4(CN(CCO)C5)C3C2)C1O (stereo not shown)	HBE	cell growth or viability, MTT		21.6
CCCCCCCCCCCCCCCCn1c(-c2cccnc2)nc(-c2ccc(C)cc2)c1-c1ccc(C)cc1	L929	cell growth or viability, SRB		409
COC(=O)[C@@H]1[C@@H](OC)[C@H](OC(=O)c2cc(OC)c(OC)c(OC)c2)C[C@@H]2CN3CC[C@]4(O[C@@H]3C(=O)[C@@H]21)C(=O)Nc1cc(OC)ccc14	RS4-11	cell growth or viability, trypan blue	72 h	2.97
C=C1C(=O)[C@@]23CC[C@@H]4C(C)(C)CCC[C@@]4(COC(C)=O)[C@@H]2[C@@H](O)C[C@@H]1C3 (single isomer, unassigned)	HBE	cell growth or viability, MTT		9.6

Some of these lines once more:
SMILES	cell line	test	setting	IC50 [µM]
C=C1C(=O)[C@@]23CC[C@@H]4[C@](C)(COC(C)=O)CCC[C@@]4(CO)[C@@H]2[C@@H](O)C[C@@H]1C3	HBE	cell growth or viability, MTT		15
